# Experimental data pooled from the literature.
# Numbered parts are unrelated; each lists some results of a single study.

# Sample 1 — technique: protein-binding microarray; form: double-stranded DNA, one strand shown; matrix: in vitro; concentration: 250 nM; setting: 60-bp whole probe; together with: salmon DNA 0.4 mg/ml; relative to: random background probes; reading: higher = stronger binding
# Target: Interferon regulatory factor 5, full length, phosphomimetic (IRF5, Homo sapiens, UniProt Q13568-2, residues 1-514, K96S/S451D/S453D/S456D/S462D)
Sequence,log fluorescence [z-score]
GCCTAGCACGACGGTTCCCTTTTGCTGACGTGCTAGGTCTTGATTCGCTTGACGCTGCTG,0.373
GCCTAGCACACATGCTTCGAGATCTCCGAGTGCTAGGTCTTGATTCGCTTGACGCTGCTG,-0.175
GCCTAGCACGACTGACTGCTTATCCTGACGTGCTAGGTCTTGATTCGCTTGACGCTGCTG,-0.0985
GCCTAGCACGACGGTATCGGACTGGGGCCGTGCTAGGTCTTGATTCGCTTGACGCTGCTG,0.698

# Sample 2 — technique: competition protein-binding microarray; form: double-stranded DNA, one strand shown; matrix: in vitro; concentration: 2 µM; together with: Pho4 competitor, 0.05 µM; reading: higher = stronger binding
# Target: Centromere-binding protein 1, full length, His-tagged (CBF1, Saccharomyces cerevisiae, UniProt P17106, residues 1-351)
# Chain of UniProt P17106 (whole entry, looked up): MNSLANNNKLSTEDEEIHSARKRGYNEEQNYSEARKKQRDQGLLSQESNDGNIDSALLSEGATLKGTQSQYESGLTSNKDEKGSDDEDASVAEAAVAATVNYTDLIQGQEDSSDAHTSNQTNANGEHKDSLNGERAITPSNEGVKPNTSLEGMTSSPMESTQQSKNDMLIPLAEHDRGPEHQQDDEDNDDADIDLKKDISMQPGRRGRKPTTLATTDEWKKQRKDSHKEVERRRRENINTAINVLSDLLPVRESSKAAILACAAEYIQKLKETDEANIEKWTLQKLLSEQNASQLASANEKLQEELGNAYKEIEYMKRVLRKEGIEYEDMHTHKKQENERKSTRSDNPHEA
# Setting: whole 60-bp probe, lowest competitor level
Sequence,fluorescence intensity [a.u.]
CGTATGTCAGATCCTCGCATGATAAAAGAAATTATGGTCTTGATTCGCTTGACGCTGCTG,93.2
TGATAGTTTTTCTCCCTCGTGAAGCAGCATGTTTTAGTCTTGATTCGCTTGACGCTGCTG,105
ACCGAAATTTCTCCACACGTGATGGTAAGTGTATTTGTCTTGATTCGCTTGACGCTGCTG,3500
GAATTACAGTTGGATGACATGTTGAACTCAGAAAAAGTCTTGATTCGCTTGACGCTGCTG,76.9

# Sample 3 — technique: protein binding microarray; form: double-stranded DNA, one strand shown; matrix: in vitro; concentration: not given; relative to: not given; reading: higher = stronger binding
# Target: Histone acetyltransferase KAT6A, winged helix 2, GST fusion (KAT6A, Homo sapiens, UniProt Q92794, residues 85-181)
# Setting: 8-mer, flanks averaged, mean of 2 arrays, mostly near background
# Residues (chain): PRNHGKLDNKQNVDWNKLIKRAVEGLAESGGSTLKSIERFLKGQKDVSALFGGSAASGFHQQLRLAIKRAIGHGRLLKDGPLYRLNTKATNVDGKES
Sequence,E-score
AAACAGGG,0.0349
CGGGTAGC,0.143
CATCCTAA,0.0557

# Mixed results
Substance,target,test,system,setting,scale,measurement,result
"PhoQ, residues 284 288 289 292 302 303 SVHLDV","PhoP, residues 12 14 15 18 19 NQCAL (Escherichia coli, UniProt P23836)","Sort-seq, refers to: YFP reporter",E. coli,"PhoQ-PhoP variant library, together with: 10 µM Mg2+","relative to: high Mg2+ state, higher = stronger signaling",fold induction,18.3

# A few entries again (sample 3):
Sequence,E-score
CGGGTAGC,0.143
